Results collected from several papers.
Each numbered part is a random draw from the data of one study; scales do not carry over between parts. Changes are numbered by the printed parent chain.

Study 1
Target: CCNA1, cyclin fold, Cln2 fusion (human)
Technique: yeast growth competition, sequencing
Medium: yeast
Notes: weak parent motif
Relative to: not given
Reading: higher = stronger binding
Endpoint: normalised enrichment score
Starting sequence: SAMHD1 docking peptide (human); ASKSRVQLFKDDP; partner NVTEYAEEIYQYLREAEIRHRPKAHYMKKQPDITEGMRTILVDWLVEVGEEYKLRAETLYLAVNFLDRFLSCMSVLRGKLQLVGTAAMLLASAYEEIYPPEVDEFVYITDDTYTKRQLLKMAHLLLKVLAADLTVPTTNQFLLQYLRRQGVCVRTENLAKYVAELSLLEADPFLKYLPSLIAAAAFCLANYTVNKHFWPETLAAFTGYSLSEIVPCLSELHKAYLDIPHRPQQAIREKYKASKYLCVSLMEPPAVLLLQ
Variant = ASISRVQLFKDDP [K3I]; result = -0.00777
Variant = AKKSRVQLFKDDP [S2K]; result = 0.152
Variant = ASKSRVFLFKDDP [Q7F]; result = -0.0443
Variant = AQKSRVQLFKDDP [S2Q]; result = 0.219
Variant = ASKPRVQLFKDDP [S4P]; result = 0.171
Variant = ASKSRVQLFKDWP [D12W]; result = -0.3
Variant = ASKSRVQLPKDDP [F9P]; result = 0.306
Variant = ASKSGVQLFKDDP [R5G]; result = 0.119
Variant = ASWSRVQLFKDDP [K3W]; result = 0.149
Variant = ASKSRVQLFKNDP [D11N]; result = 0.285
Variant = ASKSRVQLFKDYP [D12Y]; result = 0.768
Variant = AFKSRVQLFKDDP [S2F]; result = 0.262
Variant = ASKSRVELFKDDP [Q7E]; result = 0.264
Variant = ASQSRVQLFKDDP [K3Q]; result = -0.144
Variant = ASKSRVQLWKDDP [F9W]; result = 0.367
Variant = ASKRRVQLFKDDP [S4R]; result = 0.697
Variant = ASKSRVQLFKWDP [D11W]; result = 0.0918
Variant = ASKFRVQLFKDDP [S4F]; result = 0.202
Variant = ASKSRVQLFNDDP [K10N]; result = 0.25
Variant = ASKHRVQLFKDDP [S4H]; result = 0.588
Variant = ASKSRVQLKKDDP [F9K]; result = -0.0834
Variant = ASKSRVQLFKCDP [D11C]; result = -0.0413
Variant = ASMSRVQLFKDDP [K3M]; result = 0.0703
Variant = ASKSRNQLFKDDP [V6N]; result = 0.375
Variant = ASKSRVQSFKDDP [L8S]; result = 0.32

Study 2
Target: RNA binding protein fox-1 homolog 2, RRM domain, GST-SBP tag (RBFOX2, Homo sapiens, UniProt O43251-10, residues 100-194)
Technique: RNA Bind-n-Seq
Form: RNA
Medium: in vitro
Concentration: 365 nM
Notes: natural RNA segment, single round, ends assumed
Relative to: no-protein control
Reading: higher = stronger binding
Endpoint: RBNS enrichment (R)
Construct (chain): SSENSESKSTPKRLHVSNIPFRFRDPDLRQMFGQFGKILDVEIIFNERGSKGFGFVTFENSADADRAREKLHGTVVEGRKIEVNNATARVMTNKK
Oligonucleotide = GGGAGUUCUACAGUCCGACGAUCUAGAACAAACUAGUGACCAAAUUGUCAUCUGCUAGUAUGGAAGUUCUUAGUUUUCUUAACCAUGCUUUAUGUCUUGUCCAGGUAUGUCAGUCCAGUUUCCAUGACGUACCUGGAAUUCUCGGGUGCCAA; result = 2.34
Oligonucleotide = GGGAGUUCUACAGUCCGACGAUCUUGGUUUUUUAAAAUCUGUACAGCAAGAGCAACUUUUUCUGUCAAAUAAAAAUGAGAAAUGCAGGAACUGGGUCUGUAGACUGUUUAUUAAAGGUGUGUUAAGGGGGCAGUGGAAUUCUCGGGUGCCAA; result = 1.4
Oligonucleotide = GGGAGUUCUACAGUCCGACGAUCAUAAAGGGAGGUACCUAAAUACUCAAAUAAUGUAUAUAUUCUUUUUCAUAACAUAUGGAAUGCUUUAAGCAAUUGUUUUGAAAAAAAUCUGCGUAUCUUUGACUUAAUUGUGGAAUUCUCGGGUGCCAA; result = 0.524
Oligonucleotide = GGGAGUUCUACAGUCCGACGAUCUUAUCCUGUCUUUGGGGGCAAUGUGUCAAAAGUCCCCUCAGGAAUUUUCAGAGGAAAGAACAUUUUAUGAGGCUUUCUCUAAAGUUUCCUUUGUAUAGGAGUAUGCUCACUGGAAUUCUCGGGUGCCAA; result = 0.504
Oligonucleotide = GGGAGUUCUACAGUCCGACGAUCCAUACUUGCAAAGGAGAGGAGAGAGUGCUAAAGCCUGGUUCUGACUGAGGGCUCUGCGUCCCUGCAGUAAACAGGUGAGAUCUGCAGCAGGGCAGGGCUGCUUUAACAGGUGGAAUUCUCGGGUGCCAA; result = 0.7
Oligonucleotide = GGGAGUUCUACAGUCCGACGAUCAUUGUGUAACAAGUACUGCUCCCAGCAGCAAUUAGGGAGAAAACUAGUCUAAAUUAUUUCAACUGGAAAAAAGAAAAAAGAGUCCUCUUCUUUUCCCAGCCUUUUGCAGAUGGAAUUCUCGGGUGCCAA; result = 0.385
Oligonucleotide = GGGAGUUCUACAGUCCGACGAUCGUCCCUUGUUCUUCGUUCUGCUGCUUUGCCCCUUCCUUCCCUCUUCAUGGAGUGAUUAUGUUGAUAAUAAUGUGUAAUGCGCGUUCUUUUCACUGGUUUAUCUACAGAAAUGGAAUUCUCGGGUGCCAA; result = 0.325
Oligonucleotide = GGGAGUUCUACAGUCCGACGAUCUUUUCUUAUUAAAGUAUGUAGUUUAAAAGUAAGACUUUUUUCCUGACAGUAUUAUGUAAUUUUUAGCGUGGGUAGAUGGGAGUGUCGCUUGUAUGUUACCAUACAGCUGAUGGAAUUCUCGGGUGCCAA; result = 0.82
Oligonucleotide = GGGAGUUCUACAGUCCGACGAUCGUGCACUUGUGUGUGGGUGACUAAGUGGAUGCAUGUGUGUGCCUGUGUGAGUGAGGGUAUGUGCACCUAAGUGUGUACAUGUGUGUAUGUUGUGAAAGUGUCUGUGCACAUGGAAUUCUCGGGUGCCAA; result = 15.2
Oligonucleotide = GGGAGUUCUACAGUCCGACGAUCUAGCACGGAGGAGGAGGUGCUGCGUUGGAGGGAGGGGAUCCUCCAGGAGCUCUCUGGAGCCCAUCUAGGAAGCUAGAGUGUGUGGCCCGCCAGGAGCUCAGGAAGGAUACUGGAAUUCUCGGGUGCCAA; result = 0.938
Oligonucleotide = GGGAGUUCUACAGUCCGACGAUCGGCCUCCUCCAUCAGAUGCCUGGGCCUCCUCCAUCAGAUGUCUGGGCCUCCUCCAUCAGAUGUCUGGGCCUCCUCCAGCUGGUGCCUGGACAUUCACCGUUUAUACAUGGUGGAAUUCUCGGGUGCCAA; result = 0.306
Oligonucleotide = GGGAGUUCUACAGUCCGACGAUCGGCUUAAGUGUGCAGCUACCCACAAGCCUAGCCCCGAGGGGUGGGUGGAGCAACAGCUUUAGAGUGACUCAACUCCUAUCACCAGGAGAAACAAUUCUGAAAACUGGUCCUGGAAUUCUCGGGUGCCAA; result = 0.317

Study 3
Target: Histone acetyltransferase KAT6A, winged helix 1, GST fusion (KAT6A, Homo sapiens, UniProt Q92794, residues 1-85)
Technique: protein binding microarray
Form: double-stranded DNA, one strand shown
Medium: in vitro
Concentration: not given
Notes: 8-mer, flanks averaged, mean of 2 arrays, mostly near background
Relative to: not given
Reading: higher = stronger binding
Endpoint: E-score
Residues (chain): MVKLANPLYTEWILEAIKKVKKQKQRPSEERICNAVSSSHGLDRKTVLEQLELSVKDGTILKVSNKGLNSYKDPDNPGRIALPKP
Oligonucleotide = TAACTCCA; result = -0.0975
Oligonucleotide = CCTTACTC; result = -0.00585
Oligonucleotide = ACGCGTAA; result = 0.304
Oligonucleotide = CCGGCTAA; result = 0.265
Oligonucleotide = CGCGTCCG; result = 0.318
Oligonucleotide = ATGCTATG; result = -0.134
Oligonucleotide = AGGGCGTA; result = 0.158
Oligonucleotide = CCAGGATC; result = -0.111
Oligonucleotide = ACTCTGCC; result = -0.0593
Oligonucleotide = GTTGTATA; result = -0.1
Oligonucleotide = GTGATATA; result = -0.0127
Oligonucleotide = CGGTCCAA; result = 0.0816
Oligonucleotide = GCTACTCC; result = 0.0199
Oligonucleotide = GTATGTAA; result = -0.0955
Oligonucleotide = AACAATCT; result = -0.117
Oligonucleotide = CCAGTGAC; result = -0.184
Oligonucleotide = CGTACGGC; result = 0.438
Oligonucleotide = CTGGTTCA; result = -0.29

Study 4
Target: Interferon regulatory factor 7, full length, phosphomimetic (IRF7, Homo sapiens, UniProt Q92985, residues 1-503, S471D/S472D/S475D/S476D/S477D/S483D/S484D/S487D)
Technique: protein-binding microarray
Form: double-stranded DNA, one strand shown
Medium: in vitro
Concentration: 2200 nM top
Notes: 60-bp whole probe
Added: salmon DNA 0.4 mg/ml
Relative to: random background probes
Reading: higher = stronger binding
Endpoint: fitted relative affinity
All sequences stand within: GCCTAGCAC … GTCTTGATTCGCTTGACGCTGCTG
Target sequence (chain): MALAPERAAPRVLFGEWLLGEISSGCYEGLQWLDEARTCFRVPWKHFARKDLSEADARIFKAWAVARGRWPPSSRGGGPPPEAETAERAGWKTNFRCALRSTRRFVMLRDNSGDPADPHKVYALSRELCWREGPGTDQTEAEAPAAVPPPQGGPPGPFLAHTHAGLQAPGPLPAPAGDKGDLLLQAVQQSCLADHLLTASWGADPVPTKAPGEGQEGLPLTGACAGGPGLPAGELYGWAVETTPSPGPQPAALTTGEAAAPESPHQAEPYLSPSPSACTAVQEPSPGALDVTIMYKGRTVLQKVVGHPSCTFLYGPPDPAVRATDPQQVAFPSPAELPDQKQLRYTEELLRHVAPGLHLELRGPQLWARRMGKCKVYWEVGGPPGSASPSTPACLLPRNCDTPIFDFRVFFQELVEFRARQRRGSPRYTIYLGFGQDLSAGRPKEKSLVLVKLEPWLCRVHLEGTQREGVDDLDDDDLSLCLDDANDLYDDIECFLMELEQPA
Oligonucleotide = TTAGGTTTGCTACTGCTTTAGTGCTAG; result = 0.426 z-score
Oligonucleotide = TCTCCTCCAGGTTCTCTGACAGTGCTA; result = 0.94 z-score
Oligonucleotide = TTAGGTTTCGGACTTGGTTAGTGCTAG; result = 2.71 z-score
Oligonucleotide = TCATTTTTTTCTAACTAACTGTGCTAG; result = 1.17 z-score
Oligonucleotide = GACGGTTTCGGACTGGGGACGTGCTAG; result = 3.74 z-score
Oligonucleotide = TTAGATTACGGGTATCGATTAGTGCTA; result = 0.4 z-score
Oligonucleotide = TTAGGGTTCGACTATCGGTTAGTGCTA; result = 0.21 z-score
Oligonucleotide = TCCTCTCTCTTTCCACTTGTGTGCTAG; result = 3.94 z-score
Oligonucleotide = ATGCTGGTCACTCTCTGGGCGTGCTAG; result = 0.0407 z-score
Oligonucleotide = TTAGGCTTCCTTCTCCTTTAGTGCTAG; result = 0.812 z-score
Oligonucleotide = TCATGTTTCTTCTGCTGACTGTGCTAG; result = 2.16 z-score
Oligonucleotide = TCAATTTTTTTTCTAACACTGTGCTAG; result = 0.654 z-score
Oligonucleotide = TTAGGTTCCCTACTGCTTTAGTGCTAG; result = 0.813 z-score
Oligonucleotide = GACGGTATCCTTTTCGTGACGTGCTAG; result = 1.4 z-score
Oligonucleotide = ACTTAAACTAGAAACTGACTTGTGCTA; result = -0.567 z-score
Oligonucleotide = GACGGTATCGCCTTTCGGGACGTGCTA; result = 1.12 z-score
Oligonucleotide = GACGGTCTCCTTATACTGACGTGCTAG; result = 1.04 z-score
Oligonucleotide = GACTTTCTTTCAAATGAAGGAGTGCTA; result = 0.524 z-score
Oligonucleotide = TCAGTTTTCCTTATTGCACTGTGCTAG; result = 3.01 z-score
Oligonucleotide = TTAGAACTGGGGTATCGTTTAGTGCTA; result = 0.159 z-score
Oligonucleotide = GACGGACTGCTGATCCTGACGTGCTAG; result = 0.17 z-score
Oligonucleotide = TTAGGTTTCGCTATCGGTTAGTGCTAG; result = 5.81 z-score
Oligonucleotide = TAAGATCTCAGTCTCGATTAGTGCTAG; result = 0.484 z-score
Oligonucleotide = GAAGATTTCGGGTATCGAGACGTGCTA; result = 2.41 z-score
Oligonucleotide = CTTTACATGGGTTTTCAGCTGGTGCTA; result = 0.768 z-score

Some of these lines once more (study 1):
Variant = ASKSRVQLWKDDP [F9W]; result = 0.367
Variant = ASKSRVQLFKDWP [D12W]; result = -0.3
Variant = ASKSGVQLFKDDP [R5G]; result = 0.119
Variant = ASWSRVQLFKDDP [K3W]; result = 0.149
Variant = ASKSRVQLPKDDP [F9P]; result = 0.306
Variant = ASQSRVQLFKDDP [K3Q]; result = -0.144
Variant = ASKSRVQLFKDYP [D12Y]; result = 0.768
Variant = ASKSRVFLFKDDP [Q7F]; result = -0.0443
Variant = ASKSRNQLFKDDP [V6N]; result = 0.375
Variant = ASMSRVQLFKDDP [K3M]; result = 0.0703
Variant = AFKSRVQLFKDDP [S2F]; result = 0.262
Variant = ASKSRVQLFKCDP [D11C]; result = -0.0413
Variant = ASKRRVQLFKDDP [S4R]; result = 0.697
